Measured values of several laboratories.
Every numbered part comes from another study and shows a few of its results, in no order.
UniProt Q96RR4, sequence (whole entry, looked up): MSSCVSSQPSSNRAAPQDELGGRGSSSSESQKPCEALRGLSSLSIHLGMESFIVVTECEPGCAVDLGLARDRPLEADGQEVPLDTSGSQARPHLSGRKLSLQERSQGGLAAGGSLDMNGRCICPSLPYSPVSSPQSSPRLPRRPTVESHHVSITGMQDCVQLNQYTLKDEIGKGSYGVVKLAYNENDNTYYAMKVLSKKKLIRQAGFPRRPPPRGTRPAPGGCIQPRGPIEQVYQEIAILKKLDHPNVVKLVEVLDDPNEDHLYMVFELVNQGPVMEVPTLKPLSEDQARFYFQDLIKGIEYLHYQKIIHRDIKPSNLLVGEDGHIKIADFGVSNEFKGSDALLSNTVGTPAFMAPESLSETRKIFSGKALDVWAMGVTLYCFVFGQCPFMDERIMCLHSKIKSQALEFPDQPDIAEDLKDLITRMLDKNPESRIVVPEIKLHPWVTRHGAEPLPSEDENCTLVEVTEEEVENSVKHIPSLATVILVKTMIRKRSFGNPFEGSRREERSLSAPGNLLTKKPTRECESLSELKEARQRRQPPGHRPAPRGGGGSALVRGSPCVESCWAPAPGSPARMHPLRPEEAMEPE
UniProt Q9UIK4, sequence (whole entry, looked up): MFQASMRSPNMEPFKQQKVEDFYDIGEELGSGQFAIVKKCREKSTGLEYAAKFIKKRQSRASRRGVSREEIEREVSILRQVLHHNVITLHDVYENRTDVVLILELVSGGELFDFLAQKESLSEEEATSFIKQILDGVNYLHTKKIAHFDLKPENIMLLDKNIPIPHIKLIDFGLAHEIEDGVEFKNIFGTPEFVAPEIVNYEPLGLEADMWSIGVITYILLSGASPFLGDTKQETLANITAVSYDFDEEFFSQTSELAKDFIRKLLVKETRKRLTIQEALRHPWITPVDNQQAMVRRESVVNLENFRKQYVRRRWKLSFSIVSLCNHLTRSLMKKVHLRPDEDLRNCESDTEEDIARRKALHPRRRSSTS
UniProt P11802, sequence (whole entry, looked up): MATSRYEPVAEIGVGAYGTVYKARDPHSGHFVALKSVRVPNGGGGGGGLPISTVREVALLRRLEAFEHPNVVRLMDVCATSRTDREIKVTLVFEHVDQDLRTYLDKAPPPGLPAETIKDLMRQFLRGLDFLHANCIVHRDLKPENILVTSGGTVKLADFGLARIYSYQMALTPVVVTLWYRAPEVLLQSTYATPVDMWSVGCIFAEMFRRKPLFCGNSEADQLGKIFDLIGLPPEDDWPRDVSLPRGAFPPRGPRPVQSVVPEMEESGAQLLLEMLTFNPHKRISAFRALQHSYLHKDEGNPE
UniProt Q00535, sequence (whole entry, looked up): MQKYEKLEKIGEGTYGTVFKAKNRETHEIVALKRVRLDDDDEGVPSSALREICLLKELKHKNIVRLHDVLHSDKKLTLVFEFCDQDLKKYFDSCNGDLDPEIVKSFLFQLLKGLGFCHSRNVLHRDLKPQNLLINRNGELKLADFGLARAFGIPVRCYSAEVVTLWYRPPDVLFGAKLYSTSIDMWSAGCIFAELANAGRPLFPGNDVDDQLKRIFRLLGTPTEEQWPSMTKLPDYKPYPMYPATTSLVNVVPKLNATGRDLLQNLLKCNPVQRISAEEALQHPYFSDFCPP
UniProt P52564, sequence (whole entry, looked up): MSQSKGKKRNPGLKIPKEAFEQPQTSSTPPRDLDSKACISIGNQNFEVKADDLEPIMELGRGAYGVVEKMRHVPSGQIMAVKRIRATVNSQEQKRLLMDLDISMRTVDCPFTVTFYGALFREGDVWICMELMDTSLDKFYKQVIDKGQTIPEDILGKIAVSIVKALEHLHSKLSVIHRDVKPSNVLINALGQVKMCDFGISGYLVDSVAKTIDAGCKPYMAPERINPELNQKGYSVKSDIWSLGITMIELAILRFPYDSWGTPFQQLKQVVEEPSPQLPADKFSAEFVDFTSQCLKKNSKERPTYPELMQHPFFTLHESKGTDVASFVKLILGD
UniProt P07948, sequence (whole entry, looked up): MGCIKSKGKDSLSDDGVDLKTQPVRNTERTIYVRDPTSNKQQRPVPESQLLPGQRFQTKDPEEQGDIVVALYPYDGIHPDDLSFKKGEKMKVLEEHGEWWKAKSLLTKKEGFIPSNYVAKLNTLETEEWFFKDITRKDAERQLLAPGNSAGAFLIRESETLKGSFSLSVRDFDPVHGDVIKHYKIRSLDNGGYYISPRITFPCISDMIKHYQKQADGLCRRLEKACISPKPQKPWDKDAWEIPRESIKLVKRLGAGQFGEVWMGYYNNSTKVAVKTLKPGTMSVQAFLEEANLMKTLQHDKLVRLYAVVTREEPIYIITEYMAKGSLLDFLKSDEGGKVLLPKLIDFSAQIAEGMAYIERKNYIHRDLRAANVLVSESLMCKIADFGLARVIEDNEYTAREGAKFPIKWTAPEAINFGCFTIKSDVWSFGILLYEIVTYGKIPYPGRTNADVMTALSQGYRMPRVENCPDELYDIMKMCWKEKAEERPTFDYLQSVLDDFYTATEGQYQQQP
UniProt P05771, sequence (whole entry, looked up): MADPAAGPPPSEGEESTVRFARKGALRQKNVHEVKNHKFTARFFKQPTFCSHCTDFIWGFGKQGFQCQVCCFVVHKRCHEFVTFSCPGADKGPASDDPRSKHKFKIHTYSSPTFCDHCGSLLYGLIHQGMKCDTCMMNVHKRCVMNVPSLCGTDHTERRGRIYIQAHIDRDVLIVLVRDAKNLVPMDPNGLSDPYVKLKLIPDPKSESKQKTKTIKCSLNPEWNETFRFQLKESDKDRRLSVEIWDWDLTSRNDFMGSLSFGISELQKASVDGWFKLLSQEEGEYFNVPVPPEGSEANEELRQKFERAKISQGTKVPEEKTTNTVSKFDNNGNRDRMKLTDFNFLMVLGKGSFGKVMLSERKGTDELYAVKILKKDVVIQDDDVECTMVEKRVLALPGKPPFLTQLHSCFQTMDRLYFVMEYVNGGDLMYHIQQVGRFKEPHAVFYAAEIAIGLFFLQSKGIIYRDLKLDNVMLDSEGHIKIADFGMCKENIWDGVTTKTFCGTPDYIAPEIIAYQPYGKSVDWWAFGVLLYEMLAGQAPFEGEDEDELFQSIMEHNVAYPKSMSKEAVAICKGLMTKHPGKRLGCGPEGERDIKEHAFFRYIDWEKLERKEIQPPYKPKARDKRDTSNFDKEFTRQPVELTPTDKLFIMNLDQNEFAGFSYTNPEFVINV
UniProt O14920, sequence (whole entry, looked up): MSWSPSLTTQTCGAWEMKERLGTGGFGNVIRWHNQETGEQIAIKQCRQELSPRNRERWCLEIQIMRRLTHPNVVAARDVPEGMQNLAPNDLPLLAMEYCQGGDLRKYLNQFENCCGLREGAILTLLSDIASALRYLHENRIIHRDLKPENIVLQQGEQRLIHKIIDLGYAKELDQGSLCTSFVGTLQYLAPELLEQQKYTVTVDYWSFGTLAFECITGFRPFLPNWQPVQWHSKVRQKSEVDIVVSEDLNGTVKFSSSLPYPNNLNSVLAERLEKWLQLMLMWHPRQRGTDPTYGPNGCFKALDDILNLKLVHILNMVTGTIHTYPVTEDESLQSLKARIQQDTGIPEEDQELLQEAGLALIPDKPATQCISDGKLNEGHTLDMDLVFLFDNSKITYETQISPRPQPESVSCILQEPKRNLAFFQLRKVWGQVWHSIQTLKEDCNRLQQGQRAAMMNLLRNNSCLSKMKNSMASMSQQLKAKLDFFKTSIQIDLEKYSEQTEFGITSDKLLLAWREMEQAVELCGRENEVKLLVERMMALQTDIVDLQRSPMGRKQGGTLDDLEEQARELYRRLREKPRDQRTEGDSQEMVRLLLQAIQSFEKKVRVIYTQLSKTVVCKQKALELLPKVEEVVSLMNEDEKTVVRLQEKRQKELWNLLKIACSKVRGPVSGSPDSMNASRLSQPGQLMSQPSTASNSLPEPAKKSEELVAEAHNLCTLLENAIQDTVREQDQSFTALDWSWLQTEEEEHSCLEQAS

Series 1 — SMILES: O=c1cc(N2CCOCC2)oc2c(-c3ccccc3)cccc12; effect on: enzyme activity; action: inhibitor; concentration: 0.5 µM; baseline: control
target	remaining activity [%]
NEK2 (Homo sapiens, UniProt P51955)	89.8
MAP3K3 (Homo sapiens, UniProt Q99759)	93.4
PRKACA (Homo sapiens, UniProt P17612)	98.3
Protein kinase C beta type, isoform beta-I (PRKCB, Homo sapiens, UniProt P05771)	96
STK11 (Homo sapiens, UniProt Q15831)	101
PRKCA (Homo sapiens, UniProt P17252)	97.5
STK39 (Homo sapiens, UniProt Q9UEW8)	78.4
TGFBR2 (Homo sapiens, UniProt P37173)	142
TGFBR1 (Homo sapiens, UniProt P36897)	97.5
cGMP-dependent protein kinase 1, isoform beta (PRKG1, Homo sapiens, UniProt Q13976)	104
GRK3 (Homo sapiens, UniProt P35626)	99.8
Cyclin-dependent kinase 5, with p25 (CDK5, Homo sapiens, UniProt Q00535)	86.7
OXSR1 (Homo sapiens, UniProt O95747)	118
DAPK2 (Homo sapiens, UniProt Q9UIK4)	126
CHEK2 (Homo sapiens, UniProt O96017)	93.7
CAMK2D (Homo sapiens, UniProt Q13557)	100
IKBKB (Homo sapiens, UniProt O14920)	100
Tyrosine-protein kinase Lyn, isoform B (LYN, Homo sapiens, UniProt P07948)	99.4
STK10 (Homo sapiens, UniProt O94804)	97.1
CAMKK2 (Homo sapiens, UniProt Q96RR4)	83.3
IKBKE (Homo sapiens, UniProt Q14164)	100
Cyclin-dependent kinase 4, with cyclin D1 (CDK4, Homo sapiens, UniProt P11802)	111
DAPK1 (Homo sapiens, UniProt P53355)	90.1
MAPK9 (Homo sapiens, UniProt P45984)	102

Series 2 — technique: protein binding microarray; form: double-stranded DNA, one strand shown; matrix: in vitro; concentration: not given; baseline: not given; reading: higher = stronger binding
Target: Histone acetyltransferase KAT6A, both winged helices, GST fusion (KAT6A, Homo sapiens, UniProt Q92794, residues 1-181)
Setting: 8-mer, flanks averaged, mean of 2 arrays, mostly near background
Target sequence (chain): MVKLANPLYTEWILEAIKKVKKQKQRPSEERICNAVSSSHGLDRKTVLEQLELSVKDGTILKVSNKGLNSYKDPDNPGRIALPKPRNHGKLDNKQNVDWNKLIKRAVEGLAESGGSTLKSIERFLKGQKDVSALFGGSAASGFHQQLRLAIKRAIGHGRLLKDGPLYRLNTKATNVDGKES
Sequence	E-score
TAGTACTA	-0.11
ACCATTCA	-0.124
AACACGCG	0.267
AGGAGATG	-0.137
ATTCTCCG	0.11
ACCTGTCC	-0.0858
AGTGCTTA	-0.137
GAAGTGGC	-0.134

Series 3 — effect on: cell-free assay; technique: competition with immobilised ligand; concentration: 1 µM
SMILES: CCC(=O)N[C@H]1CC[C@@H](C(=O)N(C)c2ccc(-c3nc4ccccc4o3)cc2)C1
target	remaining binding
CLK3 (Homo sapiens, UniProt P49761)	91%
eIF-2-alpha kinase GCN2, C-terminal kinase domain (EIF2AK4, Homo sapiens, UniProt Q9P2K8, S808G)	100%
PRKCE (Homo sapiens, UniProt Q02156)	90%
PI4KB (Homo sapiens, UniProt Q9UBF8)	77%
CDK14 (Homo sapiens, UniProt O94921)	92%
MAP2K6 (Homo sapiens, UniProt P52564)	100%
BRAF (Homo sapiens, UniProt P15056, V600E)	96%
MST1R (Homo sapiens, UniProt Q04912)	87%

Series 4 — technique: competition protein-binding microarray; form: double-stranded DNA, one strand shown; matrix: in vitro; concentration: 2 µM; with: Pho4 competitor, 0.05 µM; reading: higher = stronger binding
Target: Centromere-binding protein 1, full length, His-tagged (CBF1, Saccharomyces cerevisiae, UniProt P17106, residues 1-351)
UniProt P17106, sequence (whole entry, looked up): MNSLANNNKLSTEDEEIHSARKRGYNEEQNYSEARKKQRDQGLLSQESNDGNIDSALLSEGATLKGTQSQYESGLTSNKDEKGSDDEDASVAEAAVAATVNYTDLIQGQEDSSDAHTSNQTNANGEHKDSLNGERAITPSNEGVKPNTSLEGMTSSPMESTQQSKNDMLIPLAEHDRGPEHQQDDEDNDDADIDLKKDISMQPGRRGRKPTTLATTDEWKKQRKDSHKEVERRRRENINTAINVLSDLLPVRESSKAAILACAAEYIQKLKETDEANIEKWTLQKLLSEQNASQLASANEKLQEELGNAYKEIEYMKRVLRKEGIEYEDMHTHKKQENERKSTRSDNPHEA
Setting: whole 60-bp probe, lowest competitor level
Sequence	fluorescence intensity [a.u.]
CATACCCAACCTTTTCACGTGCTGTAAGATATTTGTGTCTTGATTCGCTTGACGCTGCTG	1160
CTTCTGTAAATTTGATCTGTGGGTGGACGCGCCCCGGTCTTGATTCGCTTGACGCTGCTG	78.9
TCGGGCTCCGTTTCGTCCGTGGGTACTCCAGCAGATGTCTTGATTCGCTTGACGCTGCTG	45.7
CTAACGAAGGTTTGCGGTGTGGGTGACAAGCCAAGTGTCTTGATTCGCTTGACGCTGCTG	67.5
AAAGCGGTAATTTGGAAAGTGGGTGCAGATATCTATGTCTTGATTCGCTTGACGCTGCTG	86
CGTCCTAGCGATTGAAACGTGGGTGCCATGAGGAAGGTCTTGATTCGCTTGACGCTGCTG	125
ATATCATTTCGCCAACACGTGAGATATCATCTGGCTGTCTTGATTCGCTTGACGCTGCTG	1490
CTCCTCCTCCGGCTTCACGTGTGGAATAGGTGTATGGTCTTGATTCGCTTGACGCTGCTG	495
